Measured values gathered from unrelated publications.
Parts stem from different laboratories: compare values within a part only. Changes are numbered by the printed parent chain.

Block 1 — target: CCNB2, cyclin fold, Cln2 fusion (human); method: yeast growth competition, sequencing; sample: yeast; notes: weak parent motif; reference: not given; reading: higher = stronger binding
Starting sequence: SLBP docking peptide (human); ARYKRKLLINDFG
Change | normalised enrichment score
ARYKRKLLIRDFG [N10R] | 0.0402
ARYKNKLLINDFG [R5N] | 0.732
ARYKRKCLINDFG [L7C] | 0.526
ARYKRKLLIDDFG [N10D] | 0.413
ARYKRKLLINDFR [G13R] | 0.244
ARYKRKLLINDMG [F12M] | 0.228
ARYKRKLLINDWG [F12W] | 0.305
ARTKRKLLINDFG [Y3T] | 0.548
ARVKRKLLINDFG [Y3V] | 0.455
ARYKRKLLRNDFG [I9R] | 0.869
ARYKRKLLINDFF [G13F] | 0.618
ARYKLKLLINDFG [R5L] | 0.587
ARHKRKLLINDFG [Y3H] | 0.281
AMYKRKLLINDFG [R2M] | 0.574
AIYKRKLLINDFG [R2I] | 0.656
ARYKRKLDINDFG [L8D] | 0.318
ARYKRKLLINSFG [D11S] | 0.402
ERYKRKLLINDFG [A1E] | -0.03

Block 2 — method: two-hybrid; reference: out of 4 tests; reading: higher = firmer interaction
Partner: ARF22 498-598 (Arabidopsis thaliana, UniProt Q9C8N7)
B1: ARF7 1030-1164 (Arabidopsis thaliana, UniProt P93022); chain PAQTQRMRTYTKVQKRGSVGRSIDVNRYRGYDELRHDLARMFGIEGQLEDPQTSDWKLVYVDHENDILLVGDDPWEEFVNCVQSIKILSSAEVQQMSLDGNFAGVPVTNQACSGGDSGNAWRGHYDDNSATSFNR
B2: ARF18 482-602 (Arabidopsis thaliana, UniProt Q9C5W9); chain QKKQQTSRSRTKVQMQGIAVGRAVDLTLLKSYDELIDELEEMFEIQGQLLARDKWIVVFTDDEGDMMLAGDDPWNEFCKMAKKIFIYSSDEVKKMTTKLKISSSLENEEYGNESFENRSRG
B3: IAA19 (Arabidopsis thaliana, UniProt O24409); chain MEKEGLGLEITELRLGLPGRDVAEKMMKKRAFTEMNMTSSGSNSDQCESGVVSSGGDAEKVNDSPAAKSQVVGWPPVCSYRKKNSCKEASTTKVGLGYVKVSMDGVPYLRKMDLGSSQGYDDLAFALDKLFGFRGIGVALKDGDNCEYVTIYEDKDGDWMLAGDVPWGMFLESCKRLRIMKRSDATGFGLQPRGVDE
B4: IAA28 (Arabidopsis thaliana, UniProt Q9XFM0); chain MEEEKRLELRLAPPCHQFTSNNNINGSKQKSSTKETSFLSNNRVEVAPVVGWPPVRSSRRNLTAQLKEEMKKKESDEEKELYVKINMEGVPIGRKVNLSAYNNYQQLSHAVDQLFSKKDSWDLNRQYTLVYEDTEGDKVLVGDVPWEMFVSTVKRLHVLKTSHAFSLSPRKHGKE
B5: IAA14 (Arabidopsis thaliana, UniProt Q38832); chain MNLKETELCLGLPGGTETVESPAKSGVGNKRGFSETVDLKLNLQSNKQGHVDLNTNGAPKEKTFLKDPSKPPAKAQVVGWPPVRNYRKNVMANQKSGEAEEAMSSGGGTVAFVKVSMDGAPYLRKVDLKMYTSYKDLSDALAKMFSSFTMGSYGAQGMIDFMNESKVMDLLNSSEYVPSYEDKDGDWMLVGDVPWPMFVESCKRLRIMKGSEAIGLAPRAMEKFKNRS
B6: IAA33 (Arabidopsis thaliana, UniProt Q9FKM7); chain MNSFEPQSQDSLQRRFHQDNSTTQQPRDTTTPFIPKPASKNHNNSNSSSGAAGRSFQGFGLNVEDDLVSSVVPPVTVVLEGRSICQRISLDKHGSYQSLASALRQMFVDGADSTDDLDLSNAIPGHLIAYEDMENDLLLAGDLTWKDFVRVAKRIRILPVKGNTRQVKRNE
B7: ARF16 570-670 (Arabidopsis thaliana, UniProt Q93YR9); chain SPCSKKVHDASGLETGHCKVFMESDDVGRTLDLSVLGSYEELSRKLSDMFGIKKSEMLSSVLYRDASGAIKYAGNEPFSEFLKTARRLTILTEQGSESVVV
B8: ARF6 790-935 (Arabidopsis thaliana, UniProt Q9ZTX8); chain SENPQSNTFVKVYKSGSFGRSLDISKFSSYHELRSELARMFGLEGQLEDPVRSGWQLVFVDRENDVLLLGDDPWPEFVSSVWCIKILSPQEVQQMGKRGLELLNSAPSSNNVDKLPSNGNCDDFGNRSDPRNLGNGIASVGGSFNY
B9: IAA27 (Arabidopsis thaliana, UniProt Q9ZSY8); chain MSVSVAAEHDYIGLSEFPTMEATTMSDKTKTRDNNNGLNFKATELRLGLPGSESPERVDSRFLALNKSSCPVSGAKRVFSDAINDSNKWVFSPGSTTATGDVGSGSGPRTSVVKDGKSTTFTKPAVPVKEKKSSATAPASKAQVVGWPPIRSFRKNSMASSQSQKPGNNSETEEAEAKSGPEQPCLYVKVSMEGAPYLRKIDLKTYKSYLELSSALEKMFSCFTIGQFGSHGGCGRDGLNESRLTDLLRGSEYVVTYEDKDSDWMLVGDVPWEMFICSCKKLRIMKSSEAIGLAPRVMEKCRSRN
Construct (chain): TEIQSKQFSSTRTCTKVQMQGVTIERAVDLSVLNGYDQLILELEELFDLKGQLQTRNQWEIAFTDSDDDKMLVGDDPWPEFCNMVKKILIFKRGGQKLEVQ
Molecule | positive tests
B1 (ARF7 1030-1164) | 0
B2 (ARF18 482-602) | 1
B3 (IAA19) | 0
B4 (IAA28) | 3
B5 (IAA14) | 2
B6 (IAA33) | 1
B7 (ARF16 570-670) | 0
B8 (ARF6 790-935) | 0
B9 (IAA27) | 2

Block 3 — method: protein binding microarray; molecule type: double-stranded DNA, one strand shown; sample: in vitro; tested at: not given; reference: not given; reading: higher = stronger binding
Target: Histone acetyltransferase KAT6A, winged helix 1, GST fusion (KAT6A, Homo sapiens, UniProt Q92794, residues 1-85)
Notes: 8-mer, flanks averaged, mean of 2 arrays, mostly near background
Construct (chain): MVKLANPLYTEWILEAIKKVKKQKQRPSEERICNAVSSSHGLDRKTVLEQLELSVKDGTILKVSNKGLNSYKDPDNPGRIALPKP
Strand | E-score
AGATCTAT | -0.0713
GCCGCATA | 0.311
GTGGCCGA | 0.117
CAGTTACG | 0.237
GAGGAAAA | -0.209
CTTAGGTC | -0.0609
CTTGGCAC | -0.221
TATGGCCA | -0.223
TCCTCGCA | -0.00158
AGCGGCCT | 0.285
ACCAGGTC | 0.0858
AGCCAAGG | -0.164
ACCGAATC | 0.0815
GATGTATA | -0.15
AATGTGCG | 0.173
CCGTTGCC | 0.33
GCCTAAAC | -0.109
CTGAGTAA | -0.125
CGTGATTA | -0.0397
CAATGGGA | -0.151
GGGGGTGA | -0.0334
AGACGCGC | 0.388
CAAGATAC | -0.154
ATGCGGAA | 0.132
GTGTTTCA | -0.0702

Block 4 — method: DHFR PCA, deep sequencing; sample: yeast; added: (+)-ABA 0 µM; reference: wild-type fitted maximum; reading: higher = stronger binding
Target: ABI1, truncated, D143A, DHFR fusion (Arabidopsis thaliana)
Notes: methotrexate growth selection, single substitutions
Starting sequence: PYL1, truncated, DHFR fusion (Arabidopsis thaliana); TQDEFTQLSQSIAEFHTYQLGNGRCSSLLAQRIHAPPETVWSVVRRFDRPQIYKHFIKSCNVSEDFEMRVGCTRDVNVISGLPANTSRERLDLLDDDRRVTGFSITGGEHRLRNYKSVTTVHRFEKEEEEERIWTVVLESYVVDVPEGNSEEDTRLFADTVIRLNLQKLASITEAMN; partner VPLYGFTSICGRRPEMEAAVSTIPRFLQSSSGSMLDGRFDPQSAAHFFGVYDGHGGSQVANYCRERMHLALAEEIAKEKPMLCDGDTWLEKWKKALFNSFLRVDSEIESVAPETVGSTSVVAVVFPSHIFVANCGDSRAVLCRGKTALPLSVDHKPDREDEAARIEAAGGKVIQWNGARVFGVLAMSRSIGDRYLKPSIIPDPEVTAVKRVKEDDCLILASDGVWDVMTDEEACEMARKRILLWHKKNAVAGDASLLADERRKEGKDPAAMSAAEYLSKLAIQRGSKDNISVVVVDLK
Change | relative binding score
T1W | 18.8%
Q2N | 24.1%
H122V | -3.43%
E128M | 8.16%
A170F | -55.8%
P83R | 16.7%
R45Y | -8.89%
C25H | -6.22%
E67K | 18.7%
R46C | 2.54%
P146S | 5.82%
T6L | 34.4%

Block 5 — method: universal PBM; molecule type: double-stranded DNA, one strand shown; sample: in vitro; tested at: 600 nM; reading: higher = stronger binding
Target: Sal-like protein 4, full length isoform A (SALL4, Homo sapiens, UniProt Q9UJQ4, residues 1-1053)
Sequence of UniProt Q9UJQ4 (whole entry, looked up): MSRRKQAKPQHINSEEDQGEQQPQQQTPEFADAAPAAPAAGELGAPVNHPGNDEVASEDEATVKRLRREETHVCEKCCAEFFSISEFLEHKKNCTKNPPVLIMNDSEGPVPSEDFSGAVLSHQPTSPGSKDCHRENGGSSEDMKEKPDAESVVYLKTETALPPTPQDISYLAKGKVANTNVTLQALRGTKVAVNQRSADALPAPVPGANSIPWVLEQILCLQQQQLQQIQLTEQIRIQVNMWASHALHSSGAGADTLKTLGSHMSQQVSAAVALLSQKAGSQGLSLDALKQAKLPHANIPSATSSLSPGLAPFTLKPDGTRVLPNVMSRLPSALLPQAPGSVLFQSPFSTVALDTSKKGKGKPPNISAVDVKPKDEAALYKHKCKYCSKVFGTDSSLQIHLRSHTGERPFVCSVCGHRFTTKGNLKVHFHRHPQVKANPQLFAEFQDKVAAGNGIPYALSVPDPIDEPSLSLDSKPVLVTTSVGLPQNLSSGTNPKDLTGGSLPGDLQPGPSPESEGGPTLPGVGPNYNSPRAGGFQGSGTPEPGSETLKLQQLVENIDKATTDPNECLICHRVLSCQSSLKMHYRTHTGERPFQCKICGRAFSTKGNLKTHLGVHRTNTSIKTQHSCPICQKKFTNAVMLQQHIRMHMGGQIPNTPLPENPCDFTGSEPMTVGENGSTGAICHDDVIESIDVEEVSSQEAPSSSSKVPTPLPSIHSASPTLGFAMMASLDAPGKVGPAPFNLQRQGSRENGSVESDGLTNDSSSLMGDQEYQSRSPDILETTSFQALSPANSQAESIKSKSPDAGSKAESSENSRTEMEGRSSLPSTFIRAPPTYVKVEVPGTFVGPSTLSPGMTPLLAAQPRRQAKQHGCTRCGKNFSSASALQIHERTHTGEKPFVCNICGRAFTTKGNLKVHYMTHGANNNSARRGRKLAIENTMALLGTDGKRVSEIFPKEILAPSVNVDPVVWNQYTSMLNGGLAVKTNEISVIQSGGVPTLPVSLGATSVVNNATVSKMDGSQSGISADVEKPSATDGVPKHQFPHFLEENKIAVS
Notes: 8-mer, flanks averaged, mean of replicates
Strand | E-score
ATGGTCAG | 0.106
CCCAGCAC | -0.25
CGGTCGCA | -0.241
ATTTGCTC | 0.158
CACCCCAG | -0.267
AACCAGCG | -0.228
TAGATAGA | 0.169
AGAACCCA | -0.17
CCAGCTGA | -0.125
ACCCTGCT | -0.131
ACTTATAG | 0.167
AGGTCACG | -0.345
GAACGTCA | 0.0514
AGGGTCGC | -0.296
TAGTCGCA | 0.00211
GCCTGGAC | -0.234
AGAAGTAC | 0.0674
ACTCGTGA | 0.00131
ATAACTTG | 0.287
CGTTTAAG | 0.0377
CACTACGA | 0.00981
CGCCCTGA | -0.225
CGAGGGTA | -0.142
CACGCACA | 0.039
GCGCTACC | -0.209

Repeated from above (block 4):
Change | relative binding score
C25H | -6.22%
P146S | 5.82%
T1W | 18.8%
R45Y | -8.89%
T6L | 34.4%
E67K | 18.7%
A170F | -55.8%
R46C | 2.54%
H122V | -3.43%
E128M | 8.16%
Q2N | 24.1%
P83R | 16.7%
